Measured values gathered from unrelated publications.
A part holds a random share of what one study measured.
Chain of UniProt Q16539 (whole entry, looked up): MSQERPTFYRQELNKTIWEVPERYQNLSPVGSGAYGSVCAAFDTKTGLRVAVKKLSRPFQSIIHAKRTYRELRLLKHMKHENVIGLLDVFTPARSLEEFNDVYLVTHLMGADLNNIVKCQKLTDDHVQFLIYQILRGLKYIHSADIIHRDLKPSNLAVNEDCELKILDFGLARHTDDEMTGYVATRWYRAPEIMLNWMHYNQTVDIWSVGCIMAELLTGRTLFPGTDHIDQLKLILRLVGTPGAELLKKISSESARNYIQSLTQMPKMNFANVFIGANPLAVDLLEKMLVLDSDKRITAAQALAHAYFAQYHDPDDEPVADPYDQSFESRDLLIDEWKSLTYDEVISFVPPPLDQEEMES
Chain of UniProt Q13237 (whole entry, looked up): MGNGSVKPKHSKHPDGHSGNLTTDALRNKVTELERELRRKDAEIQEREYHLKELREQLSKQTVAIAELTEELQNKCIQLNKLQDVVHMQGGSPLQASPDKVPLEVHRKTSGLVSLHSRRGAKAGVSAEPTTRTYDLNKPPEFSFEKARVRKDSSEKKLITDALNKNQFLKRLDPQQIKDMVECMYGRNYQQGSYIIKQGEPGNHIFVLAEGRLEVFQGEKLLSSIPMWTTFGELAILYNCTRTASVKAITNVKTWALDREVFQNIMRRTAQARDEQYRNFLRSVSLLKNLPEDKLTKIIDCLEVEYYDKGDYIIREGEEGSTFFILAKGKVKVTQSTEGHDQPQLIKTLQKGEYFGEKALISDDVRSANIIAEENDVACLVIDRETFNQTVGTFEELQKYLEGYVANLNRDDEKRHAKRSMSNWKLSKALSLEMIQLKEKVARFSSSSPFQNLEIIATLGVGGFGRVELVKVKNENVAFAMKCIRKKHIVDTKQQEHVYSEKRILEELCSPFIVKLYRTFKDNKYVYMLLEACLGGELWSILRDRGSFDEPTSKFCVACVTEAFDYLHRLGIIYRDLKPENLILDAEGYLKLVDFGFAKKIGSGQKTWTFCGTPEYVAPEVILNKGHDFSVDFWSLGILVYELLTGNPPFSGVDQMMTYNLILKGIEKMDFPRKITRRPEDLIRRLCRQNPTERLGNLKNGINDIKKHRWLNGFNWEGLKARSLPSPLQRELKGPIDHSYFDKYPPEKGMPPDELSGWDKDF
Chain of UniProt P41595 (whole entry, looked up): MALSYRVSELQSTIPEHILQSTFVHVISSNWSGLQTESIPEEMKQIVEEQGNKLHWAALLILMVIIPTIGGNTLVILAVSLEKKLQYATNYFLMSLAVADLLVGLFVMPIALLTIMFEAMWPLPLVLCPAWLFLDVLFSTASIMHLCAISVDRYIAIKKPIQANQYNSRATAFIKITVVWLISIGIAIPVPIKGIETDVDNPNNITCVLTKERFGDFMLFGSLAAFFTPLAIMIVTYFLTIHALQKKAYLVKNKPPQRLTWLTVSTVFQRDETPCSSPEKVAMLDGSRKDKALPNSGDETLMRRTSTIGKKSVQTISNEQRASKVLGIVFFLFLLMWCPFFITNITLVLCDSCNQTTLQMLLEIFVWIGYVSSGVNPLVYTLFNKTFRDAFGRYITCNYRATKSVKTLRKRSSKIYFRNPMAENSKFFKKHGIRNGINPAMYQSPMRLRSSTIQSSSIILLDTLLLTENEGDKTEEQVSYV
Chain of UniProt P18089 (whole entry, looked up): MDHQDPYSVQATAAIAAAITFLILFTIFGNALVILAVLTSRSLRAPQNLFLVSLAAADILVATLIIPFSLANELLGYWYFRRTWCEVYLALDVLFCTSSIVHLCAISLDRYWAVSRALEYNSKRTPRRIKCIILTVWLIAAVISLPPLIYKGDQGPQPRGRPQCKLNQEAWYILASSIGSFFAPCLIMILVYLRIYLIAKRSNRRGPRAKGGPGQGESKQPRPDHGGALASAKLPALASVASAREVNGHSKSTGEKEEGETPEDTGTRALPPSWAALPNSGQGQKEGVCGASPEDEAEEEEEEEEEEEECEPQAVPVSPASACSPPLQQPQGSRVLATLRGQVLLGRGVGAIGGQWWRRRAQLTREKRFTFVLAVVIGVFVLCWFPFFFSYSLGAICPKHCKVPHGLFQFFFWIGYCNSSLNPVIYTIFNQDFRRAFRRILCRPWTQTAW
Chain of UniProt P32298 (whole entry, looked up): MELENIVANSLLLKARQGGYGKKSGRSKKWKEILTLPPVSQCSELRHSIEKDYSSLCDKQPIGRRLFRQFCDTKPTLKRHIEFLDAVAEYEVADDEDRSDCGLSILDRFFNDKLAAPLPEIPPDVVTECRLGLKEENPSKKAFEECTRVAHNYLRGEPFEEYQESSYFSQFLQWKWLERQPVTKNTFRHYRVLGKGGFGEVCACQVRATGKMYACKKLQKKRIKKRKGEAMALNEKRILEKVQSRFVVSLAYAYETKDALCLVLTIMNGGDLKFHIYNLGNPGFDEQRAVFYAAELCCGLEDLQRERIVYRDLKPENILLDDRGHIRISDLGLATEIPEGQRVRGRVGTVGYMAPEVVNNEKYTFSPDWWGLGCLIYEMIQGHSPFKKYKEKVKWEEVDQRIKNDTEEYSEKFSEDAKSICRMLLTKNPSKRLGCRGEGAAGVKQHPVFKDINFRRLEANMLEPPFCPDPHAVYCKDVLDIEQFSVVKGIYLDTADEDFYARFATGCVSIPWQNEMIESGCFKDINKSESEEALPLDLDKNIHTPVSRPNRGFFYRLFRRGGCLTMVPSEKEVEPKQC
Chain of UniProt Q5BJF2 (whole entry, looked up): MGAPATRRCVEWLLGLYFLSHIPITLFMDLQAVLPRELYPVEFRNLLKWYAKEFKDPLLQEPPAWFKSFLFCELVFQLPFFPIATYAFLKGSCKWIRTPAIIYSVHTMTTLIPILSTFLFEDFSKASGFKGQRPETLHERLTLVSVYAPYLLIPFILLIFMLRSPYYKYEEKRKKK
Chain of UniProt O75914 (whole entry, looked up): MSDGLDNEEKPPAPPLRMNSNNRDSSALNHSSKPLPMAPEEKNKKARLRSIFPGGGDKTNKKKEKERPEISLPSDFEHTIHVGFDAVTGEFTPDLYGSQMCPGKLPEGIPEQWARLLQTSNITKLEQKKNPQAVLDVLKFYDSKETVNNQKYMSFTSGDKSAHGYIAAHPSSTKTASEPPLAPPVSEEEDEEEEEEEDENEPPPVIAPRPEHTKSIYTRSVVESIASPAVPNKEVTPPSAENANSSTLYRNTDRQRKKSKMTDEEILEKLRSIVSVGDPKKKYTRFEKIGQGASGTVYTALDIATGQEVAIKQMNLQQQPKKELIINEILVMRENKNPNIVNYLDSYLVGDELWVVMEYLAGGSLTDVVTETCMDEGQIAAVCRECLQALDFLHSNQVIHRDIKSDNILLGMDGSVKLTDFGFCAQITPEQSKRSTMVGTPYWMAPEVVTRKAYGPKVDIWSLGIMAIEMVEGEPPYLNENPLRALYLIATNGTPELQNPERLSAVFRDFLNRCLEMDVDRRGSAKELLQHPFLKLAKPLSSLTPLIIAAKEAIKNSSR
Chain of UniProt Q8N568 (whole entry, looked up): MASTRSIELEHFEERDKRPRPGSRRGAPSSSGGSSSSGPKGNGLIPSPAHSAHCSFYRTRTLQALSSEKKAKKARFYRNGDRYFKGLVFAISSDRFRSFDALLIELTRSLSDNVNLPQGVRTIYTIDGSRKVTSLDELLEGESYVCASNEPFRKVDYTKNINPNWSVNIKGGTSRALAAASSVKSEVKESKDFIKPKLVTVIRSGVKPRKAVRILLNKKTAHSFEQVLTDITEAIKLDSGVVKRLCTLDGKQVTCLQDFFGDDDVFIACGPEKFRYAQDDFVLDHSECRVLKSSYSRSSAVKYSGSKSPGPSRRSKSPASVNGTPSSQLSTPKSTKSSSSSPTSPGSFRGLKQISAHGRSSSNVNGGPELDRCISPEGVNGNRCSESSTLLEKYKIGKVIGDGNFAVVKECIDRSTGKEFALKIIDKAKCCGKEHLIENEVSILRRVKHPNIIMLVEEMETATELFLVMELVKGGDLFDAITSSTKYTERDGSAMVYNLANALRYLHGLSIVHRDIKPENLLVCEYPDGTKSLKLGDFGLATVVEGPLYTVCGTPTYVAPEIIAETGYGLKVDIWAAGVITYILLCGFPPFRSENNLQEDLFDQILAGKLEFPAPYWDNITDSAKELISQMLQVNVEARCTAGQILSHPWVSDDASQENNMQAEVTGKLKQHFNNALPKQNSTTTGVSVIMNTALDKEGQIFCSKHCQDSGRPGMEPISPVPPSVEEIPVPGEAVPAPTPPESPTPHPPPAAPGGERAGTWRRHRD
Chain of UniProt Q15759 (whole entry, looked up): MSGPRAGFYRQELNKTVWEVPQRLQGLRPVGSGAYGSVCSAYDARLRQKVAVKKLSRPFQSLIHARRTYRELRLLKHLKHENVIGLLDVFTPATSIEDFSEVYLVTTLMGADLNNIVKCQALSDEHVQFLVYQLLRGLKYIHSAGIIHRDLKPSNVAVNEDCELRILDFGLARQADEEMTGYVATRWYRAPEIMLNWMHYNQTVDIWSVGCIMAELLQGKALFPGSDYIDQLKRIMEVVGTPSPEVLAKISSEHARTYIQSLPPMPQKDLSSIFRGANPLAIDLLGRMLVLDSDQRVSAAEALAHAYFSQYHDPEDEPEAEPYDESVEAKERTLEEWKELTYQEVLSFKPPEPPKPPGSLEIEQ

Set 1
Target: Bromodomain-containing protein 4, BD1 (BRD4, Homo sapiens, UniProt O60885)
Effect on: acetyl-histone H4 peptide binding
Technique: AlphaScreen displacement
Concentration: 50 µM
`CCCCCCOC(=O)[C@]1(O)C[C@@H]2O[C@@]1(C)n1c3ccccc3c3c4c(c5c6ccccc6n2c5c31)C(=O)NC4` gave an inhibition of 27.9%.
The inhibition of `O=C(CSc1ccc2nnc(-c3cccc(F)c3)n2n1)NCC1CCCO1` (centres unmarked) is reported as 9.9%.
With `O=C1Nc2ccccc2C1=Cc1c(Cl)[nH]c2ccccc12` the inhibition was 62.9%.
The inhibition of `Clc1cccc(Nc2cncc(-c3cccnc3)c2)c1` is reported as 6.85%.
The inhibition of `CCCCc1c(-c2ccc(O)cc2)[nH]c2nccnc12` is reported as 3.9%.
The inhibition of `Cc1ccc(NS(=O)(=O)c2cc(C(=O)O)c(Cl)cc2Cl)c(O)c1` is reported as 18.6%.
With `Cc1ccc([N+](=O)[O-])cc1S(=O)(=O)N(C)N=Cc1cnc2ccc(Br)cn12` the inhibition was 55.7%.
The inhibition of `O=C(NNC(=O)c1c(O)c2ccccc2[nH]c1=O)c1cccc(Cl)c1` is reported as -4.6%.
The inhibition of `CCOC(=O)C(CC)Sc1ccc2nnc(-c3cccc(F)c3)n2n1` (centres unmarked) is reported as 13.9%.
`O=S(=O)(NCCNCC=Cc1ccc(Br)cc1)c1cccc2cnccc12` gave an inhibition of 12.9%.
With `O=C(O)CCSc1nnc2c(n1)[nH]c1ccccc12` the inhibition was -3.15%.
The inhibition of `CCOC(=O)C1=C(C)NN=C(Nc2cccc(C)c2C)S1` is reported as 47%.
`NC(=O)c1ccc(-c2nc(-c3ccc4c(c3)OCCO4)c(-c3ccccn3)[nH]2)cc1` has an inhibition of 52.4%.

Set 2
Target: Eukaryotic initiation factor 4A-I (EIF4A1, Homo sapiens, UniProt P60842)
Chain of UniProt P60842 (whole entry, looked up): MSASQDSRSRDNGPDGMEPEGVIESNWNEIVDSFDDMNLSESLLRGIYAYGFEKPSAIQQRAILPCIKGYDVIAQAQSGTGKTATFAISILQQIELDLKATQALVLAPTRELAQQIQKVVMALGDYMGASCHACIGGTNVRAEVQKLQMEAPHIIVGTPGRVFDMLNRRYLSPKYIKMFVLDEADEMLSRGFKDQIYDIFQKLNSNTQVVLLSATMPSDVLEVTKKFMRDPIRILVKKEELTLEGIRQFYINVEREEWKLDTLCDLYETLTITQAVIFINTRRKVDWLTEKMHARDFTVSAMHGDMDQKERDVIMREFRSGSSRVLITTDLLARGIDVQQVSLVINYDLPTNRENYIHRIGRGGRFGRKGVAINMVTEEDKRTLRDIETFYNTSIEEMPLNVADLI
Effect on: RNA clamping
Technique: fluorescence polarization
Concentration: concentration not given
Setting: mean of two replicates
Added: FAM-labelled poly r(AG)8 RNA
For `COc1ccc([C@@]23Oc4cc(OC)cc(OC)c4[C@]2(O)[C@H](O)[C@H](C(=O)c2cc4ccccc4o2)[C@H]3c2ccccc2)cc1`, “fluorescence polarization change” read 14.1 mP.
For `C#CCN[C@@]12C(=O)[C@H](C(=O)OC)[C@@H](c3ccccc3)[C@]1(c1ccc(OC)cc1)Oc1cc(OC)cc(OC)c12`, “fluorescence polarization change” read 3.9 mP.
For `CCCc1ccc(C(=O)[C@H]2[C@@H](O)[C@@]3(O)c4c(OC)cc(OC)cc4O[C@@]3(c3ccc(OC)cc3)[C@@H]2c2ccccc2)o1`, “fluorescence polarization change” read 9.6 mP.
`C#CCOc1cc(OC)c2c(c1)O[C@@]1(c3ccc(OC)cc3)[C@H](c3ccccc3)c3c(nc4n(c3=O)CCC4)[C@@]21O`: “fluorescence polarization change” 27 mP.
Under “fluorescence polarization change”, `COc1ccc([C@@]23Oc4cc(OC)cc(OC)c4[C@]2(O)[C@H](O)[C@H](C(=O)c2cc(C)c(C)o2)[C@H]3c2ccccc2)cc1` is recorded as 15.4 mP.
Under “fluorescence polarization change”, `COc1ccc([C@@]23Oc4cc(OC)cc(OC)c4[C@]2(O)C2=C(C(=O)N4CCC[C@H]4O2)[C@H]3c2ccccc2)cc1` is recorded as 51.6 mP.
`COC(=O)[C@H]1C(=O)[C@@]2(NC34C[C@H]5C[C@@H](C3)C[C@@H](C4)C5)c3c(OC)cc(OC)cc3O[C@@]2(c2ccc(OC)cc2)[C@@H]1c1ccccc1` — result for “fluorescence polarization change”: 0.4 mP.
For `CCCN[C@@]12C(=O)[C@H](C(=O)N(C)C)[C@@H](c3ccccc3)[C@]1(c1ccc(OC)cc1)Oc1cc(OC)cc(OC)c12`, “fluorescence polarization change” read -4.4 mP.

Set 3
Compound: O=C(c1cc2cc(O)ccc2[nH]1)c1cc2cc(O)ccc2[nH]1
Effect on: enzyme activity
Mode: inhibitor
Concentration: 0.5 µM
Baseline: control
It gave 24.8% for remaining activity (Dual specificity protein kinase CLK3 (CLK3, Homo sapiens, UniProt P49761)).
The remaining activity was 79.1% (Dual specificity protein kinase CLK4 (CLK4, Homo sapiens, UniProt Q9HAZ1)).
Mitogen-activated protein kinase 11 (MAPK11, Homo sapiens, UniProt Q15759) — remaining activity: 95.7%.
For Misshapen-like kinase 1 (MINK1, Homo sapiens, UniProt Q8N4C8): remaining activity read 9.87%.
For Mitogen-activated protein kinase 14 (MAPK14, Homo sapiens, UniProt Q16539): remaining activity read 103%.
It gave 103% for remaining activity (G protein-coupled receptor kinase 4 (GRK4, Homo sapiens, UniProt P32298)).
Serine/threonine-protein kinase PLK3 (PLK3, Homo sapiens, UniProt Q9H4B4) — remaining activity: 101%.
For Tyrosine-protein kinase TXK (TXK, Homo sapiens, UniProt P42681): remaining activity read 74.9%.
It gave 103% for remaining activity (Dual specificity mitogen-activated protein kinase kinase 1 (MAP2K1, Homo sapiens, UniProt Q02750)).
The remaining activity was 81.3% (Ribosomal protein S6 kinase alpha-4 (RPS6KA4, Homo sapiens, UniProt O75676)).
cGMP-dependent protein kinase 2 (PRKG2, Homo sapiens, UniProt Q13237) — remaining activity: 80.6%.
For Serine/threonine-protein kinase DCLK2 (DCLK2, Homo sapiens, UniProt Q8N568): remaining activity read 88.4%.
The remaining activity was 89.2% (Hepatocyte growth factor receptor (MET, Homo sapiens, UniProt P08581)).
Serine/threonine-protein kinase PAK 3 (PAK3, Homo sapiens, UniProt O75914) — remaining activity: 99.2%.

Set 4
Structure (SMILES): N#Cc1ccc(Nc2ccc3[nH]c(=O)[nH]c3c2)c(Cl)c1
Effect on: cell-free assay
Concentration: 10 µM
The inhibition was 13.1% (Alpha-2B adrenergic receptor (ADRA2B, Homo sapiens, UniProt P18089)).
For 5-hydroxytryptamine receptor 2B (HTR2B, Homo sapiens, UniProt P41595): inhibition read 11%.
Histamine H3 receptor (HRH3, Homo sapiens, UniProt Q9Y5N1) — inhibition: 8.47%.
Sigma intracellular receptor 2 (TMEM97, Homo sapiens, UniProt Q5BJF2) — inhibition: -4.12%.
The inhibition was -18.9% (D(2) dopamine receptor (DRD2, Homo sapiens, UniProt P14416)).
For Alpha-1B adrenergic receptor (ADRA1B, Homo sapiens, UniProt P35368): inhibition read 10%.
The inhibition was -10.2% (Beta-3 adrenergic receptor (ADRB3, Homo sapiens, UniProt P13945)).
The inhibition was 4.43% (Histamine H4 receptor (HRH4, Homo sapiens, UniProt Q9H3N8)).
For Sigma non-opioid intracellular receptor 1 (SIGMAR1, Homo sapiens, UniProt Q99720): inhibition read 14%.

A few entries again (set 1):
`CCCCCCOC(=O)[C@]1(O)C[C@@H]2O[C@@]1(C)n1c3ccccc3c3c4c(c5c6ccccc6n2c5c31)C(=O)NC4` gave an inhibition of 27.9%.
`O=S(=O)(NCCNCC=Cc1ccc(Br)cc1)c1cccc2cnccc12` gave an inhibition of 12.9%.
The inhibition of `Cc1ccc(NS(=O)(=O)c2cc(C(=O)O)c(Cl)cc2Cl)c(O)c1` is reported as 18.6%.
`NC(=O)c1ccc(-c2nc(-c3ccc4c(c3)OCCO4)c(-c3ccccn3)[nH]2)cc1` has an inhibition of 52.4%.
The inhibition of `O=C(CSc1ccc2nnc(-c3cccc(F)c3)n2n1)NCC1CCCO1` (centres unmarked) is reported as 9.9%.
The inhibition of `CCCCc1c(-c2ccc(O)cc2)[nH]c2nccnc12` is reported as 3.9%.
